{"data": "Experimental data collected from several papers", "note": "A part holds a random share of what one study measured. Changes are numbered by the printed parent chain."}
{"data": "Sample 1", "target": "ABI1, truncated, D143A, DHFR fusion (Arabidopsis thaliana)", "method": "DHFR PCA, deep sequencing", "medium": "yeast", "setting": "methotrexate growth selection, single substitutions", "with": "(+)-ABA 1.4 µM", "relative to": "wild-type fitted maximum", "reading": "higher = stronger binding", "parent": "PYL1, truncated, DHFR fusion (Arabidopsis thaliana); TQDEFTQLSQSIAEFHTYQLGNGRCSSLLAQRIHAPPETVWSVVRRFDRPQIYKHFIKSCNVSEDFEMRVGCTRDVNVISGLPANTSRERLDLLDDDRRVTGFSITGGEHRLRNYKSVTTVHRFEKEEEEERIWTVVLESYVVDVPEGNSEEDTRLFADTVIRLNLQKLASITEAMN"}
{"Variant": "K58W", "relative binding score [%]": 5.59}
{"Variant": "T101D", "relative binding score [%]": -3.56}
{"Variant": "Y18P", "relative binding score [%]": 40.1}
{"Variant": "T73C", "relative binding score [%]": 44.5}
{"Variant": "L112R", "relative binding score [%]": -3.6}
{"Variant": "K126H", "relative binding score [%]": 67.6}
{"Variant": "D3I", "relative binding score [%]": 24.4}
{"Variant": "K168C", "relative binding score [%]": 52.9}
{"Variant": "G21W", "relative binding score [%]": 8.35}
{"Variant": "V70W", "relative binding score [%]": 1.72}
{"Variant": "R69C", "relative binding score [%]": 51.1}
{"Variant": "P37N", "relative binding score [%]": 6.77}
{"Variant": "V121K", "relative binding score [%]": -4.08}
{"Variant": "F15E", "relative binding score [%]": 2.29}
{"Variant": "L20I", "relative binding score [%]": 46.1}
{"Variant": "S117G", "relative binding score [%]": 3}
{"Variant": "T173M", "relative binding score [%]": 10.5}
{"data": "Sample 2", "target": "RNA binding protein fox-1 homolog 2, RRM domain, GST-SBP tag (RBFOX2, Homo sapiens, UniProt O43251-10, residues 100-194)", "method": "RNA Bind-n-Seq", "molecule type": "RNA", "medium": "in vitro", "tested at": "365 nM", "setting": "natural RNA segment, single round, ends assumed", "relative to": "no-protein control", "reading": "higher = stronger binding", "Construct (chain)": "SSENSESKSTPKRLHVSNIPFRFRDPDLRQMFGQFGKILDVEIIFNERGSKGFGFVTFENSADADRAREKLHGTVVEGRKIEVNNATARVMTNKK"}
{"Strand": "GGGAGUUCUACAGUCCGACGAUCCACGACCCUUCCCACCCCAUUCACUGGGCUGGCUCCGACCUUUCCCAGGGCUAGCCUUCACUGCCCUAGUGGCAGCGCUUCCCAGGGGUGCUCUCUGGCUCCCAGAUGUCUGGAAUUCUCGGGUGCCAA", "RBNS enrichment (R)": 0.391}
{"Strand": "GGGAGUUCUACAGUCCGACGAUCUAUGCACUUCAAGAGCUCACACUCACAUUGUGGCAAACAGUCAACAUGGAAGUAGACCGGCUCUGCUGAUUUGAAAUUUAGAUUUUUUUUUAAUUAUGUACUGGGGACAGUGGAAUUCUCGGGUGCCAA", "RBNS enrichment (R)": 0.454}
{"Strand": "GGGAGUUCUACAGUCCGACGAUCCACGUGUGCGAACUGAAAUGUCAUAGCUGAAGCAGUAUAACAGAAAACCUUUGUUUCCUGUGGGGGGAGGACUGAACAUGUGGUCUUAACAGCCUUUUGUACAGAUAUCUUGGAAUUCUCGGGUGCCAA", "RBNS enrichment (R)": 0.433}
{"Strand": "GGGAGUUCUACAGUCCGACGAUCUGUGUUCACGUGGCCCCCGACUCCUCAGCCACAUCAAGUCUCCUAGACCACUGUGGACUCUAAACUGCACUUGUCUCUCUCAUUUCCUUCAAAUAAUGAUCAAUGCUAUUUGGAAUUCUCGGGUGCCAA", "RBNS enrichment (R)": 0.513}
{"Strand": "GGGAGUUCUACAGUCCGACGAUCGAAAUAAGGGGAAGCUUUAGAGUUUAAUAGGAUAUUCAAAACUAUAAAAGAAUAUCAUCUUAAAAAACUGUUCUGGCAACUAUCUGCUACCAGAAGGUUAGAUUGAGAAAUGGAAUUCUCGGGUGCCAA", "RBNS enrichment (R)": 0.486}
{"Strand": "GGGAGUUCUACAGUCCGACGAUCAGGUUGCCACCCUUCAUAGAGUUUAGGCAUGCAGUUUGCUUAGCCAGUGUAGGAAGCCUCAUGAGAACAGAACCAUUAACAGCCAGAGUGCCAAUGGUGGGAUCAGCAGGUGGAAUUCUCGGGUGCCAA", "RBNS enrichment (R)": 0.497}
{"Strand": "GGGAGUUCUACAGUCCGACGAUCACCUCUUGCUGUGUUUGGAUCCCUUGGCCUUGUUUUGUAGAGGUGAAGUACCCCUGGAUCAUGUCCGAGUUUUUGUCUUUCACUGUCUGAAUCAUGUUCCAGCUGCUUGAUGGAAUUCUCGGGUGCCAA", "RBNS enrichment (R)": 1.34}
{"Strand": "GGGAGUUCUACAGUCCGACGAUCCGCGCCCCGGAGGCCCUGGCUCUGUCCGGAGACCAGGUGAGCACAGCCUGGAGCCUGUGCCCAGGGCCGACAGGCGCGACACCCAGCAAGGCCACCUCUCCCCGGGCCCCUGGAAUUCUCGGGUGCCAA", "RBNS enrichment (R)": 0.246}
{"Strand": "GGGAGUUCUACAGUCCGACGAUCAGCAUGCUUGGGCUGACCCAGCAUCUCCCAGCAAGACCUCAUCUGUGGAGCUGCCACAGAGAAGUUUGUAGCCAGGUACUGCAUUCUCUCCCAUCCUGGGGCAGCACUCCUGGAAUUCUCGGGUGCCAA", "RBNS enrichment (R)": 7.96}
{"Strand": "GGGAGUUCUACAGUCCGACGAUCCAGGUUGUUGACAGUUCCUGGUUGACCCACAGCUACCCAUGUCAGUUAUCUCCACUAACAUAUCCAAGAAUCUUUGUAGGACAAUUUCUCCACCUGCAAGGUCUUUCAGGUGGAAUUCUCGGGUGCCAA", "RBNS enrichment (R)": 0.634}
{"Strand": "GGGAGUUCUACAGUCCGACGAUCCUUAUGAACCUUUACAUCCAGAUAGGUUACCAGUAACGGAACAGUAUCCAGUACUCCUGGUUCCUAGGUGAGCAGGUGAUGCCCCAGGGACCUUUGUAGCCACUUCACUUUGGAAUUCUCGGGUGCCAA", "RBNS enrichment (R)": 0.338}
{"Strand": "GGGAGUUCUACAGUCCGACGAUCUAGUUCCCUCAACACAAUUGCUAAUGCAGAAUAGUGUAAAAUGCGCUUCAAGAAUGUUGAUGAUGAUGAUAUAGAAUUGUGGCUUUAGUAGCACAGAGGAUGCCCCAACAUGGAAUUCUCGGGUGCCAA", "RBNS enrichment (R)": 1.98}
{"data": "Sample 3", "target": "Sal-like protein 4, full length isoform B (SALL4, Homo sapiens, UniProt Q9UJQ4-2, residues 1-616)", "method": "universal PBM", "molecule type": "double-stranded DNA, one strand shown", "medium": "in vitro", "tested at": "not given", "setting": "8-mer, flanks averaged, mean of replicates", "reading": "higher = stronger binding", "Construct (chain)": "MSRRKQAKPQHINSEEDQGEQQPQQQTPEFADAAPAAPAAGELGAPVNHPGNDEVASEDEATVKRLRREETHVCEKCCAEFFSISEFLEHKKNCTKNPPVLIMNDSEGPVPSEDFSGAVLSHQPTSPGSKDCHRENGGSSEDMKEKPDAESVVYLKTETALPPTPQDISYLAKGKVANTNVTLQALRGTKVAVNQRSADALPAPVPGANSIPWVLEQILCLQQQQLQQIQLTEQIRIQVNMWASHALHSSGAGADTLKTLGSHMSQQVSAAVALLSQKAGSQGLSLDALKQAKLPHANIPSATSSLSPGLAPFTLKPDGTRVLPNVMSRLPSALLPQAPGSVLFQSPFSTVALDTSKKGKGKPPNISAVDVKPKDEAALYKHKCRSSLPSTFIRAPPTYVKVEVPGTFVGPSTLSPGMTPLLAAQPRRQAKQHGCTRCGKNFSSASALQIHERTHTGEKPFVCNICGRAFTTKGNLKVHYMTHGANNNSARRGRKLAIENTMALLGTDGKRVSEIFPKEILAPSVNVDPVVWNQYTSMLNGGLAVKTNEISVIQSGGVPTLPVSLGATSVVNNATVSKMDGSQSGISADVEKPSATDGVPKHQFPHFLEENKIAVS"}
{"Strand": "GGATCAAA", "E-score": 0.109}
{"Strand": "CACCAGAA", "E-score": -0.0009}
{"Strand": "ACGGACCA", "E-score": -0.086}
{"Strand": "AAAAGCAG", "E-score": -0.0522}
{"Strand": "ACATCGAC", "E-score": -0.072}
{"Strand": "AAACACGG", "E-score": -0.0483}
{"Strand": "AATTGCGA", "E-score": 0.109}
{"Strand": "CAAATCCA", "E-score": 0.177}
{"Strand": "GCTTTATA", "E-score": 0.13}
{"Strand": "AGCAATCG", "E-score": -0.0179}
{"Strand": "CCATAGAC", "E-score": 0.0101}
{"Strand": "CTGCTGAA", "E-score": -0.0916}
{"Strand": "ACAGTGGA", "E-score": -0.00295}
{"Strand": "ACGAAGTA", "E-score": -0.0674}
{"Strand": "AGCGAACT", "E-score": -0.066}
{"Strand": "ACCTTCGG", "E-score": -0.0442}
{"Strand": "CCGTCAGA", "E-score": -0.196}
{"Strand": "CGCGCTAA", "E-score": -0.131}
{"data": "Sample 4", "target": "CCNE1, cyclin fold, Cln2 fusion (human)", "method": "yeast growth competition, sequencing", "medium": "yeast", "setting": "strong parent motif", "relative to": "not given", "reading": "higher = stronger binding", "parent": "INSM1 docking peptide (human); PKAIRKLHFEDEV"}
{"Variant": "PKAIRKLHFVDEV [E10V]", "normalised enrichment score": 2.86}
{"Variant": "PKAIRKLHFEDSV [E12S]", "normalised enrichment score": 4.03}
{"Variant": "PKAIRKLHFYDEV [E10Y]", "normalised enrichment score": 3.24}
{"Variant": "PKAIRKLHFEVEV [D11V]", "normalised enrichment score": 3.07}
{"Variant": "PKSIRKLHFEDEV [A3S]", "normalised enrichment score": 0.963}
{"Variant": "PRAIRKLHFEDEV [K2R]", "normalised enrichment score": 4.75}
{"Variant": "PKAIRKLHFEDNV [E12N]", "normalised enrichment score": 3.97}
{"Variant": "PKAIRKLPFEDEV [H8P]", "normalised enrichment score": 0.735}
{"Variant": "PKAWRKLHFEDEV [I4W]", "normalised enrichment score": 1.01}
{"Variant": "PKAIRWLHFEDEV [K6W]", "normalised enrichment score": 3.65}
{"Variant": "PKAIRKWHFEDEV [L7W]", "normalised enrichment score": -0.0448}
{"Variant": "PKAIRKLHFADEV [E10A]", "normalised enrichment score": 2.87}
{"Variant": "PKALRKLHFEDEV [I4L]", "normalised enrichment score": 1.88}
{"Variant": "PKAIRSLHFEDEV [K6S]", "normalised enrichment score": 1.3}
{"Variant": "PKAIRYLHFEDEV [K6Y]", "normalised enrichment score": 2.82}
{"Variant": "PKAIYKLHFEDEV [R5Y]", "normalised enrichment score": 0.469}
{"Variant": "PKAIHKLHFEDEV [R5H]", "normalised enrichment score": 0.22}
{"Variant": "PKAIRPLHFEDEV [K6P]", "normalised enrichment score": 0.283}
{"Variant": "PKAIRKLHFEDFV [E12F]", "normalised enrichment score": 3.97}
{"Variant": "PKAIRKLKFEDEV [H8K]", "normalised enrichment score": 4.44}
{"Variant": "PKAIRKLNFEDEV [H8N]", "normalised enrichment score": 5.24}
{"Variant": "PLAIRKLHFEDEV [K2L]", "normalised enrichment score": 3.42}
{"Variant": "PKAIRKLHIEDEV [F9I]", "normalised enrichment score": -0.181}
{"Variant": "PKARRKLHFEDEV [I4R]", "normalised enrichment score": 5.78}
{"Variant": "PKAIRKCHFEDEV [L7C]", "normalised enrichment score": 0.392}
